Measurements collected from several papers.
Every numbered part comes from another study and shows a few of its results, in no order.

Set 1
Target: Interferon regulatory factor 5, full length, phosphomimetic (IRF5, Homo sapiens, UniProt Q13568-2, residues 1-514, K96S/S451D/S453D/S456D/S462D)
Method: protein-binding microarray
Form: double-stranded DNA, one strand shown
Matrix: in vitro
Tested at: 250 nM
Setting: 60-bp whole probe
Together with: salmon DNA 0.4 mg/ml
Reference: random background probes
Reading: higher = stronger binding
| Sequence | log fluorescence |
| --- | --- |
| GCCTAGCACTGTGATCTCATATGAAAACAGTGCTAGGTCTTGATTCGCTTGACGCTGCTG | 0.528 z-score |
| GCCTAGCACTTTGGTTTGTACACCGCCTTGTGCTAGGTCTTGATTCGCTTGACGCTGCTG | 0.136 z-score |
| GCCTAGCACTCAGATTTCCTTCACCCACTGTGCTAGGTCTTGATTCGCTTGACGCTGCTG | 0.822 z-score |
| GCCTAGCACGATGGTCTCCTTCTCCTGACGTGCTAGGTCTTGATTCGCTTGACGCTGCTG | -0.235 z-score |

Set 2
Target: Sal-like protein 4, full length isoform B (SALL4, Homo sapiens, UniProt Q9UJQ4-2, residues 1-616)
Method: universal PBM
Form: double-stranded DNA, one strand shown
Matrix: in vitro
Tested at: not given
Setting: 8-mer, flanks averaged, mean of replicates
Reading: higher = stronger binding
| Sequence | E-score |
| --- | --- |
| CTCCCTGC | -0.246 |
| CACCAAGA | -0.112 |
| ACAGTATC | 0.196 |
| GGTGTGAC | -0.336 |

Set 3
Target: Phosphate system positive regulatory protein PHO4, full length, GST-tagged (PHO4, Saccharomyces cerevisiae, UniProt P07270, residues 1-312)
Method: competition protein-binding microarray
Form: double-stranded DNA, one strand shown
Matrix: in vitro
Tested at: 2 µM
Setting: whole 60-bp probe, lowest competitor level
Together with: Cbf1 competitor, 0.05 µM
Reading: higher = stronger binding
Target sequence (chain): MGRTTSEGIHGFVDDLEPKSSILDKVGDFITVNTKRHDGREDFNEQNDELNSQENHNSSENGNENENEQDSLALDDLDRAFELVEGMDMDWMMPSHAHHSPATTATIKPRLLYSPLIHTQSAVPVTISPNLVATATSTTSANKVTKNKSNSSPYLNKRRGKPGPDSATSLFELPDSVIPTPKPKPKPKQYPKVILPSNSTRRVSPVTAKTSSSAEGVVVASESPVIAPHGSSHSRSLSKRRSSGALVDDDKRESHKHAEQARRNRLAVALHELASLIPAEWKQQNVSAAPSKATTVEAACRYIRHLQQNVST
| Sequence | fluorescence intensity |
| --- | --- |
| ATTCCTTTCCTGTAACTCGTGCTTTGAGAAAAGTACGTCTTGATTCGCTTGACGCTGCTG | 12100 a.u. |
| ACACTTTTGGCTCAACTCGTGTGGACAAAGCGATCTGTCTTGATTCGCTTGACGCTGCTG | 8520 a.u. |
| CTTCTGTAAATTTGCTCCGTGGGTGGACGCGCCCCGGTCTTGATTCGCTTGACGCTGCTG | 5610 a.u. |

Other studies, line by line
| Molecule | target | test | test system | setting | scale | measurement | value |
| --- | --- | --- | --- | --- | --- | --- | --- |
| PhoQ, residues 284 288 289 292 302 303 ASTSDA | PhoP, residues 12 14 15 18 19 NNFVT (Escherichia coli, UniProt P23836) | Sort-seq, item: YFP reporter | E. coli | PhoQ-PhoP variant library, together with: 10 µM Mg2+ | reference: high Mg2+ state, higher = stronger signaling | fold induction | 4.28 |

Repeated from above (set 1):
| Sequence | log fluorescence |
| --- | --- |
| GCCTAGCACTCAGATTTCCTTCACCCACTGTGCTAGGTCTTGATTCGCTTGACGCTGCTG | 0.822 z-score |
